# Results of several laboratories.
# Protocols differ between the studies behind these lines. Several values in a cell are separate wells, animals, samples, runs or records. Numbers after ± are the reported error.
Compound,tested on,assay,system,conditions,scale,endpoint,value
C=C[C@]1(C)C[C@@H](OC(=O)CSc2ccc(NC(=O)c3ccco3)cc2)[C@]2(C)[C@H](C)CC[C@]3(CCC(=O)[C@H]32)[C@@H](C)[C@@H]1O,,,"M. gallisepticum-infected chickens, plasma","intramuscular, 40 mg/kg single dose",,apparent clearance (CL/F),65.7 mL/min/kg
CCCCN1C(=O)c2cccc3c(NCCCCCCCCN4CCOCC4)ccc(c23)C1=O,,,DMSO,,,emission maximum,535 nm
[123I]c1ccc2nc(-c3ccc(-n4ccnn4)nc3)cn2c1,,,"male Wistar rat, spleen","intravenous, 4 MBq, 30 min",,tracer uptake,0.291 %ID/g
CC(C)CCCC(C)C1CCC2C3CC=C4CC(OC(=O)CCC(=O)NCCCOCCOCCOCCCNC(=O)c5ccc(C(=O)O)c(-c6c7ccc(=O)cc-7oc7cc(O)ccc67)c5)CCC4(C)C3CCC12C (stereo not drawn),,fluorescence correlation spectroscopy,water,36 °C,,diffusion coefficient,423 ± 81 µm²/s
O=C(Nc1cnccc1-c1ccc([18F])nc1)c1ccnc(NC(=O)C2CC2)c1,,,"FVB/NJ mice (both sexes), skin","intravenous, dose not given, 120 min, added: tariquidar 15 mg/kg i.v. pre-dose",,SUV,0.127
C=C(NC(=O)c1csc(-c2nc3c(cc2O)-c2nc(cs2)C(=O)NC(C(C)O)C(=O)NC(=C(C)OC)c2nc(cs2)C(=O)NC2c4nc(cs4)C(=O)NC(COC(=O)c4c5c6c(cccc6n4O)COC(=O)C(OC4CC(C)(O)C(N(C)C)C(C)O4)C2OC5)c2nc-3cs2)n1)C(N)=O (stereo not drawn),,,"cynomolgus monkey, plasma","intravenous, 3 mg/kg, single dose, infusion",,AUC(0-inf),24500 ng·h/mL
CC(C(=O)O)n1nc(Cn2cc3cc(OCC[18F])c(Cl)cc3n2)c2ccccc2c1=O (racemic),,,"rat, spleen",2 h,,tracer uptake,0.04 %ID/g
Nc1ncc(-c2cc(-c3cnn(CC(F)(F)F)c3)ncc2F)nc1C(=O)NC1CNCC(F)C1 (stereo not drawn),S6K1,KINOMEscan competition binding,,1 µM,reference: DMSO control,remaining binding,86%
Cc1cc(NC(=O)[C@H](O)c2cc(F)cc(F)c2)ccc1-c1cnc(N)c(C(=O)NC(C)C)c1,,,"female nude mouse, plasma","oral, 100 mg/kg, single dose",,half-life,2.6 h
CN(C(=O)c1ccnc(N2Cc3cn(Cc4ccc(F)cc4)nc3C2)n1)C1CCCCC1,,metabolic stability,"rat, liver microsomes",,,half-life,< 0.0167 h
CC[C@H](C)[C@@H]1NC(=O)[C@H](Cc2ccc(O)cc2)NC(=O)CCCSC[C@@H](C(=O)N(CC(=O)N[C@@H](CC(C)C)C(=O)NCC(N)=O)Cc2ccc(F)cc2)NC(=O)[C@H](CC(N)=O)NC(=O)[C@H](CCC(N)=O)NC1=O,,,human,"intranasal, 50 µg single dose",,adverse drug reactions,0%
C=CC(=O)Nc1cc(Nc2nccc(-c3cn(C)c4ccccc34)n2)c(OC)cc1N(C)CCNC,,storage stability,human plasma,"30 d, -80 °C, LQC level",,recovery,95.6%
COC1CN([C@H]2CC[C@H]([C@@]3(C)Oc4c(Cl)cc(C(=O)NCc5c(SC)cc(C)[nH]c5=O)c(C)c4O3)CC2)C1,,"RNA-seq, item: LGR4 mouse homolog","mouse, HT-1376 xenograft, whole blood",dose not given,reference: vehicle,log2 fold change,2.06
COc1cc2ncnc(Oc3ccc(Nc4nccc5[nH]cc(-c6ccc(F)cc6)c(=O)c45)cc3F)c2cc1OC,,,"male beagle dog, plasma","oral, 4 mg/kg",,Cmax,5670 ng/mL
COC1C=COC2(C)Oc3c(C)c(O)c4c(c3C2=O)C2=NC3(CCN(CC(C)C)CC3)NC2=C(NC(=O)C(C)=CC=CC(C)C(O)C(C)C(O)C(C)C(OC(=O)Nc2cscn2)C1C)C4=O (stereo not drawn),,,"CD-1 mouse, female, plasma","intravenous, 5 mg/kg",,volume of distribution,1.5 L/kg
CC(C)(O)c1ncc([S@](N)(=O)=NC(=O)Nc2c3c(cc4c2CCC4)CCC3)s1,,item: general and administration-site disorders,healthy human volunteers,"oral, 3 mg single dose, capsule formulation",,subjects with adverse events,17%
CCCCN1C(=O)c2cccc3c(NCCN4CCOCC4)ccc(c23)C1=O,,,DMSO,,,fluorescence lifetime,10.2 ns
COc1cccc(OC)c1-c1cc(C(=O)NC2(C(=O)O)C3CC4CC(C3)CC2C4)nn1-c1ccc(C(=O)NCCNC(=O)[C@H](CCCCNC(=O)[C@H](CC(C)C)NC(=O)C2OC2C(=O)O)NC(=O)CN2CCN(CC(=O)[O-])CCN(CC(=O)[O-])CCN(CC(=O)[O-])CC2)cc1C(C)C.[177Lu+3] (mixture of isomers),,,mouse HT-29 xenograft,"24 h, biodistribution",reference: tumour over pancreas,tumour-to-pancreas ratio,12.7
COCC1CN(C2CCN(c3cc(OC)c(Nc4ncc(Br)c(Nc5ccc6c(c5P(C)(C)=O)OCCO6)n4)cc3C)CC2)C1,,,EGFR-mutant NSCLC patients,"oral, 150 mg once daily",,patients with adverse events,100%
Cc1[nH]nc2c1N=C(c1ccccc1Cl)c1cnc(N3CCOCC3)cc1N2,,,"nude mouse, HCC1806 xenograft, plasma","oral, 10 mg/kg once daily",,AUC(0-last),1190 ng·h/mL
Cc1ccc(OCC(=O)N(Cc2cccs2)c2ccn[nH]2)cc1,,,rabbit liver microsomes,"10 µM, 60 min, without NADPH",,remaining compound,2.76%
O=C(Nc1cnccc1-c1ccc([18F])cc1)c1ccnc(NC(=O)C2CC2)c1,,ex vivo gamma counting,"GSK-3β transgenic mice, late-stage, hippocampus","intravenous, 120 min, mean, P-gp inhibitor pretreatment, added: tariquidar 15 mg/kg iv",,SUV,0.24
CC(C)(c1cc(Br)c(O)c(Br)c1)c1cc(Br)c(O)c(Br)c1,,,whole cow milk,20 nM nominal,,dose fraction in skim milk,45.5%
CCCCN1C(=O)c2cccc3c(NCCCCCCCCCCN4CCOCC4)ccc(c23)C1=O,,,dichloromethane,,,emission maximum,516 nm
Cc1ccc(CN2C(=O)/C(=N\c3ccc(Cl)cc3Br)c3ccccc32)cc1,,,"mouse, blood",200 mg/kg,,RDW,15.6 ± 0.31%
COc1cccc(OC)c1-c1cc(C(=O)NC2(C(=O)O)C3CC4CC(C3)CC2C4)nn1-c1ccc(C(=O)N(C)CCCN(C)CCCN(C)C(=O)[C@H](CCCCNC(=O)[C@H](CC(C)C)NC(=O)C2OC2C(=O)O)NC(=O)CN2CCN(CC(=O)[O-])CCN(CC(=O)[O-])CCN(CC(=O)[O-])CC2)cc1C(C)C.[177Lu+3] (mixture of isomers),,,"mouse, HT-29 xenograft, muscle",4 h post injection,,tissue uptake,1.7 %ID/g
CCCCN1C(=O)c2cccc3c(NCCCCCCN4CCOCC4)ccc(c23)C1=O,,,methanol,,,emission maximum,538 nm
Cc1cnc2nc1Nc1cccc(c1)COC/C=C/COCc1cc(ccc1OCCN1CCOCC1)N2,,,"BALB/c mice, rhEPO-induced polycythemia","100 mg/kg, day 5",,body weight,18.7 g and 19.2 g and 17.6 g and 18.8 g and 18.2 g
COc1cccc(OC)c1-c1cc(C(=O)NC2(C(=O)O)C3CC4CC(C3)CC2C4)nn1-c1ccc(C(=O)N(C)CCOCCOCCN(C)C(=O)[C@H](CCCCNC(=O)[C@H](CC(C)C)NC(=O)C2OC2C(=O)O)NC(=O)CN2CCN(CC(=O)[O-])CCN(CC(=O)[O-])CCN(CC(=O)[O-])CC2)cc1C(C)C.[177Lu+3] (mixture of isomers),,,"mouse, HT-29 xenograft, kidney",24 h post injection,,tissue uptake,6.7 %ID/g
CC(C)C[C@H](NC(=O)[C@H](CCCN)NC(=O)CNC(=O)[C@@H](NC(=O)[C@H](C)NC(=O)[C@@H]1CSCSC[C@H](NC(=O)CC[C@H](N)C(=O)O)C(=O)N[C@@H](CC(N)=O)C(=O)N[C@@H]([C@@H](C)O)C(=O)N[C@@H](C)C(=O)N[C@@H]([C@@H](C)O)C(=O)N1)[C@@H](C)O)C(=O)N[C@@H](C)C(=O)N[C@@H](CCC(=O)O)C(=O)N[C@@](C)(Cc1ccccc1)C(=O)N[C@@H](CC(C)C)C(=O)N[C@H](C(=O)N[C@@H](CCCNC(=N)N)C(=O)N[C@@H](CO)C(=O)N[C@@H](CO)C(=O)N[C@@H](CC(N)=O)C(=O)N(C)[C@@H](CC(N)=O)C(=O)N[C@@H](Cc1ccccc1)C(=O)NCC(=O)N1CCC[C@H]1C(=O)N[C@@H](CCCCNC(=O)CC[C@H](NC(=O)CC[C@H](NC(=O)CCCCCCCCCCCCCCCCCCC(=O)O)C(=O)O)C(=O)O)C(=O)N[C@@H](CC(C)C)C(=O)N1CCC[C@H]1C(=O)N1CCC[C@H]1C(=O)N[C@H](C(=O)N[C@@H](CCC(=O)O)C(=O)N[C@H](C(=O)NCC(=O)N[C@@H](CO)C(=O)N[C@@H](CC(N)=O)C(=O)N[C@H](C(=O)N[C@@H](Cc1ccc(O)cc1)C(N)=O)[C@@H](C)O)C(C)C)[C@@H](C)O)C(C)C,,,"human, plasma","subcutaneous, 0.4 mg, single dose, healthy volunteers",,Tmax,132 h
[2H]C([2H])([2H])NC(=O)c1ccc(N2C(=S)N(c3ccc(C#N)c(C(F)(F)F)c3)C(=O)C2(C)C)cc1F,,,"male human, plasma","oral, 80 mg, single dose, fasted",,Tmax,1.56 h
CCCCN1C(=O)c2cccc3c(NCCCN4CCOCC4)ccc(c23)C1=O,,,DMSO,,,emission maximum,535 nm
O=C(NCC(F)(F)F)c1cccc(N2Cc3cn(Cc4ccc(F)cc4)nc3C2)c1,,metabolic stability,"rat, liver microsomes",,,half-life,1.53 h
C[C@]12C[C@H](c3ccc(S(C)(=O)=O)cc3)C3=C4CCC(=O)C=C4CC[C@H]3[C@@H]1CC[C@@]2(O)C(F)(F)C(F)(F)F,,item: compound (parent),"healthy human volunteers, pooled plasma","oral, 5 mg daily, day 28, 6 h",,plasma concentration,22.1 ng/mL
COc1ccnc(C(=O)N[C@H]2COC(=O)[C@H](Cc3ccccc3)[C@@H](OC(=O)C(C)C)[C@H](C)OC2=O)c1O,,,"UK acid sand A1, OC 0.8%",pH 3.9,,Freundlich KF,22.5 mL/g
O=C([O-])CN1CCN(CC(=O)[O-])CCN(CC(CCCc2ccccc2[N+](=O)[O-])N(CC(=O)[O-])CC(=O)[O-])CC1.[90Y+3] (stereo not drawn),,,human serum,"14 days, pH 7.0, 37 °C",,radionuclide release,< 0.5%
O=C(NS(=O)(=O)c1cccs1)c1cc2ccccc2n1Cc1ccc(Br)c2ccccc12,,,"mouse, plasma","oral, 1 mg/kg",,AUC(0-last),204 ng·h/mL
CCCCN1C(=O)c2cccc3c(NCCCCCN4CCOCC4)ccc(c23)C1=O,,,water,pH 6.0,,emission maximum,553 nm
CC(CCC(=O)NCC(=O)O)C1CCC2C3CCC4CC(OC5OC(C(=O)O)C(O)C(O)C5O)CCC4(C)C3CC(O)C12C (stereo not drawn),,,"human, plasma",endogenous control diurnal,reference: daily mean concentration,relative peak deviation,153 ± 32%
CC[C@H](C)[C@@H]1NC(=O)[C@H](Cc2ccccc2)NC(=O)CSC[C@@H](C(N)=O)NC(=O)[C@H](CC(N)=O)NC(=O)[C@H](Cc2c[nH]cn2)NC(=O)[C@H](Cc2ccc(O)cc2)NC(=O)[C@H](C)NC(=O)[C@H](Cc2ccc(F)cc2)NC(=O)[C@H](CC(C)C)NC(=O)[C@H](CCCCN)NC1=O,,PAMPA,,"200 µM, 5 h, pH 7.4",,membrane retention,< 0.01%
CC1(C)C(=CC=C2CCCC(C=CC3=[N+](CCC[N+](C)(C)C)c4ccc(S(=O)(=O)O)cc4C3(C)C)=C2SCCOCCOCCC(=O)O)N(CCC[N+](C)(C)C)c2ccc(S(=O)(=O)O)cc21,,,"DMSO, PBS and FBS",across solvents tested,,emission maximum wavelength,807 to 834 nm
CC(=O)N([O-])CCCCCNC(=O)CCC(=O)N([O-])CCCCCNC(=O)CCC(=O)N([O-])CCCCCN.[89Zr+4],,,"mouse, kidney",1 h,,tracer uptake,6.64 %ID/g
